Assay results gathered from unrelated publications.
Protocols differ between the studies behind these lines. Values joined by “and” are separate records of one study, mostly repeats; a detail may differ.

SMILES = C[C@H]1C[C@H]2CSC(N)=N[C@@]2(c2nc(NC(=O)c3ccc(OC(F)F)cn3)cs2)CO1; assay = item: Aβx-40; test system = healthy adults, plasma; conditions = 125 mg once daily, day 7; how to read = baseline: placebo; quantity = percent change from baseline; result = -71%
SMILES = Cc1cc(C)c(CNC(=O)c2cc(Cl)c3c(c2C)O[C@@](C)([C@H]2CC[C@H](N(C)C)CC2)O3)c(=O)[nH]1; test system = relapsed/refractory NHL patients, PTCL; conditions = oral, dose not given; quantity = best overall response PD; result = 23.1%
SMILES = O=C(O)CNC(=O)Cc1ccccc1; test system = ventricular cardiomyocytes, C57BL/6 mouse; conditions = dose not given, 0.384 s; quantity = sarcomere length; result = 1.72 µm
SMILES = COc1cc(O)c(CC=C(C)C)c(O)c1C(=O)/C=C/c1ccc(O)cc1; assay = glucose tolerance test; test system = Tac:SW mice (male, germ-free, high-fat diet); conditions = in diet, 60 mg/kg per day, 120 min after glucose, after 10 weeks; quantity = blood glucose; result = 201 mg/dL
SMILES = C[C@H](Oc1ccc(Br)cc1-c1ccon1)C(=O)O; assay = relative refractory period; test system = human, tibialis anterior muscle; conditions = 1200 mg, SAD; quantity = difference from placebo; result = 0.16 ms
SMILES = CC(C)NCC(O)c1ccc(O)c(O)c1 (stereo not drawn); test system = ventricular cardiomyocytes, C57BL/6 mouse; conditions = dose not given, 0.592 s; quantity = sarcomere length; result = 1.65 µm
SMILES = COC[C@@H](c1ccc(C(F)(F)F)cc1)N1CCN(C2(C)CCN(C(=O)c3c(C)ncnc3C)CC2)C[C@@H]1C; test system = HIV-1 infected patients, plasma; conditions = dose not given, week 16, with optimized background regimen; how to read = baseline: baseline; quantity = change in HIV-1 RNA; result = -1.98 log10 copies/mL
SMILES = OC(CCN1CCCCC1)(c1ccccc1)C1CC2C=CC1C2 (stereo not drawn); assay = resting-state EEG; test system = healthy elderly humans; conditions = oral, 4 mg, eyes open, LS mean; how to read = baseline: baseline; quantity = change, EEG Delta power, in Fz-Cz; result = 37%
SMILES = N#Cc1ccc2c(-c3ccncc3)c(-c3ccc(F)cc3)nn2c1; assay = kinase binding, competitor, MIB/MS competition, item: KIN3; test system = Candida albicans cell lysate; conditions = 1 µM; how to read = baseline: DMSO; quantity = log2 fold change; result = 0.461
SMILES = Cc1cc(C)c(CNC(=O)c2cc(Cl)c3c(c2C)O[C@@](C)([C@H]2CC[C@H](N(C)C)CC2)O3)c(=O)[nH]1; assay = IWG 2007 criteria; test system = human, relapsed/refractory angioimmunoblastic T-cell lymphoma; conditions = dose not given; quantity = best overall response PR; result = 18%
SMILES = NC(=O)c1cnc2[nH]ccc2c1N[C@@H]1[C@@H]2CC3C[C@H]1C[C@@](O)(C3)C2; assay = flow cytometry, item: CD4+ effector T cells; test system = Japanese healthy subjects, peripheral blood; conditions = oral, 100 mg twice daily, day 7; quantity = change from baseline; result = -0.18%
SMILES = CN[C@@H](C)C(=O)N[C@H]1CN(S(=O)(=O)c2cccc(S(=O)(=O)N3CC[C@H]4CC[C@@H](C(=O)NC(c5ccccc5)c5ccccc5)N4C(=O)[C@@H](NC(=O)[C@H](C)NC)C3)c2)CC[C@H]2CC[C@@H](C(=O)NC(c3ccccc3)c3ccccc3)N2C1=O; assay = RECIST 1.1; test system = advanced pancreatic cancer patients; conditions = dose not given, prior therapy, together with: AG; quantity = best response progressive disease; result = 50%
SMILES = CCOc1c([C@H](C)n2nc(C)c3c(N)ncnc32)cc(Cl)c(F)c1[C@@H]1CNC(=O)C1; assay = Olink proximity extension, item: IL-12B; test system = human FL or MZL patients, plasma; conditions = dose not given, week 8 day 1, once-daily dosing; how to read = baseline: baseline; quantity = percent change in level; result = -48%
SMILES = c1ccc(-c2n[nH]cc2-c2ccnc3ccccc23)nc1; assay = kinase binding, competitor, MIB/MS competition, item: RTK1; test system = Candida albicans cell lysate; conditions = 1 µM; how to read = baseline: DMSO; quantity = log2 fold change; result = 1.22
SMILES = N#Cc1ccc2c(c1)[C@H]1CCCN(C(=O)c3ccc4[nH]cnc4c3)[C@H]1C2; test system = human, plasma; conditions = 160 mg, day 15, 360 h; how to read = baseline: placebo and baseline; quantity = change in fasting insulin; result = 7.5%
SMILES = FC(F)(F)Oc1cccc(-c2cnc3ccc(-c4ccncc4)nn23)c1; test system = mouse, MDA-MB-231-Luc xenograft; conditions = 10 mg/kg, start; quantity = tumour bioluminescence; result = 8.88e+09 photons/s and 5.01e+09 photons/s and 9.69e+09 photons/s and 5.79e+09 photons/s and 1.78e+10 photons/s and 1.21e+10 photons/s
SMILES = Cc1ccc([C@@H]2O[C@H](CO)[C@@H](O)[C@H](O)[C@H]2O)cc1Cc1ccc(-c2ccc(F)cc2)s1; test system = Japanese type 2 diabetes patients; conditions = 200 mg, day 16; how to read = baseline: day 0; quantity = change in 24-h mean serum insulin; result = -0.7 µU/mL
SMILES = C[C@]12CC[C@H](O)CC1=CC[C@@H]1[C@@H]2CC[C@]2(C)C(n3cnc4ccccc43)=CC[C@@H]12; assay = Western blot; test system = male NRG mouse, CWR22Rv1 xenograft, tumour; conditions = dose not given, day 16; quantity = full-length AR protein level; result = decreased

Repeated from above:
SMILES = CN[C@@H](C)C(=O)N[C@H]1CN(S(=O)(=O)c2cccc(S(=O)(=O)N3CC[C@H]4CC[C@@H](C(=O)NC(c5ccccc5)c5ccccc5)N4C(=O)[C@@H](NC(=O)[C@H](C)NC)C3)c2)CC[C@H]2CC[C@@H](C(=O)NC(c3ccccc3)c3ccccc3)N2C1=O; assay = RECIST 1.1; test system = advanced pancreatic cancer patients; conditions = dose not given, prior therapy, together with: AG; quantity = best response progressive disease; result = 50%
SMILES = NC(=O)c1cnc2[nH]ccc2c1N[C@@H]1[C@@H]2CC3C[C@H]1C[C@@](O)(C3)C2; assay = flow cytometry, item: CD4+ effector T cells; test system = Japanese healthy subjects, peripheral blood; conditions = oral, 100 mg twice daily, day 7; quantity = change from baseline; result = -0.18%
